Measured values from different studies.
± gives the spread as reported.

For `CC[C@H](C)[C@H](NC(=O)[C@H](CCCCN)NC(=O)CNC(=O)[C@H](CC(C)C)NC(=O)[C@H](Cc1ccccc1)NC(=O)[C@H](CCCCN)NC(=O)[C@H](CO)NC(=O)[C@H](Cc1ccccc1)NC(=O)[C@H](Cc1c[nH]c2ccccc12)NC(=O)[C@H](CCC(N)=O)NC(=O)[C@@H](NC(=O)[C@H](Cc1ccccc1)NC(=O)CCCCCNC(=O)CN1CCN(CC(=O)O)CCN(CC(=O)O)CCN(CC(=O)O)CC1)C(C)C)C(=O)N[C@@H](CCC(=O)O)C(=O)N1CCC[C@H]1C(=O)N[C@@H](CC(=O)O)C(=O)N[C@H](C(=O)N[C@@H](CO)C(=O)N[C@@H](CCC(N)=O)C(=O)N[C@H](C(=O)N[C@@H](CCC(N)=O)C(=O)N[C@@H](CC(=O)O)C(=O)N1CCC[C@H]1C(=O)N[C@@H](CC(N)=O)C(=O)N[C@@H](CC(=O)O)C(=O)N[C@@H](CCC(N)=O)C(=O)N[C@@H](Cc1ccc(O)cc1)C(=O)N[C@@H](CCC(=O)O)C(=O)N1CCC[C@H]1C(=O)N[C@@H](Cc1ccccc1)C(=O)O)C(C)C)C(C)C` [copper-64 labelled], the tissue uptake was 4.28 ± 1.3 %ID/g (BALB/c mice, male, CT26 tumour-bearing, small intestine; 2 h, anti-PD1 plus anti-CTLA4 treated).
For `C=Cc1c(C)c2cc3nc(c(CC(=O)[O-])c4[n-]c(cc5nc(cc1[n-]2)C(C)=C5CC)c(C)c4C(=O)[O-])C(CCC(=O)[O-])C3C.[Cu+2].[Na+].[Na+].[Na+]` (stereo not shown), the serum cholesterol was 43.7 ± 11.9 mg/dL (Wistar rat, female; oral, 250 mg/kg daily, 28 days).
`CSCC[C@H](NC(=O)CNC(=O)[C@H](CCCCN)NC(=O)[C@H](CC(C)C)NC(=O)[C@@H]1CCCN1C(=O)[C@H](CO)NC(=O)[C@H](Cc1c[nH]cn1)NC(=O)[C@H](Cc1c[nH]c2ccccc12)NC(=O)[C@H](CCCNC(=N)N)NC(=O)[C@H](CC(C)C)NC(=O)[C@H](CCCNC(=N)N)NC(=O)[C@H](Cc1c[nH]c2ccccc12)NC(=O)[C@H](CS)NC(=O)CCCCCNC(=O)CN1CCN(CC(=O)O)CCN(CC(=O)O)CCN(CC(=O)O)CC1)C(=O)O` [copper-64 labelled] has a tissue uptake of 1.68 %ID/g (C57BL/6J mice, B16-F10 tumour, blood; intravenous, 1.85 MBq, 2 h).
With `CC(C)(C)C(=O)OCOP(=O)(OCOC(=O)C(C)(C)C)C1CCCN(O)C1=O` (stereo not shown) the GI50 was 637 nM (A549).
With `CCCC[C@H]1C(=O)N(C)[C@@H](CCCC)C(=O)N[C@@H](CCCNC(=O)CN2CCN(CC(=O)O)CCN(CC(=O)O)CCN(CC(=O)O)CC2)C(=O)N[C@H](C(=O)NCC(N)=O)CSCC(=O)N[C@@H](Cc2ccc(O)cc2)C(=O)N(C)[C@@H](C)C(=O)N[C@@H](CC(N)=O)C(=O)N2CCC[C@H]2C(=O)N[C@@H](Cc2c[nH]cn2)C(=O)N[C@@H](CC(C)C)C(=O)N(C)CC(=O)N[C@@H](Cc2c[nH]c3ccccc23)C(=O)N[C@@H](CO)C(=O)N[C@@H](Cc2c[nH]c3ccccc23)C(=O)N1C` [gallium-68 labelled] the tissue uptake was 5.03 ± 0.21 %ID/g (NOD/SCID mice, CHO-hPD-L1 xenograft, intestine; 60 min, added: blocking agent 50 µg co-injected).
The fraction unbound of `CC(C)=CCC/C(C)=C\CCn1cc(CC(P(=O)(O)O)P(=O)(O)O)nn1` is reported as 0.056 (equilibrium dialysis; mouse plasma; 10 µg/mL, 4 h).
For `CN1Cc2cc(Cl)ccc2-n2c(nnc2C2CCN(c3cccc([18F])n3)CC2)C1`, “total volume of distribution” read 1.11 ± 0.32 mL/cm3 (PET two-tissue compartment model; rhesus monkey, male, striatum; intravenous, dose not given, 100 min scan, baseline scan).
Under “maximum tolerated dose”, `C[C@@H](Nc1c(-c2c(F)cc(C#N)cc2F)c(Cl)nc2ncnn12)C(C)(C)C` is recorded as no less than 20 mg/kg (CD-1 mice, both sexes; intraperitoneal, 3 weeks, twice weekly).
The peptide remaining of `CC(C)[C@@H]1NC(=O)CNC(=O)[C@H](CC(N)=O)NC(=O)[C@H](CCCNC(=N)N)NC(=O)[C@H](Cc2ccc(O)cc2)NC(=O)[C@H](C(C)C)NC(=O)[C@@H](NC(=O)[C@@H](NC(=O)[C@H](CC(N)=O)NC(=O)[C@H](Cc2c[nH]c3ccccc23)NC(=O)[C@H](C)NC(=O)[C@H](Cc2ccccc2)NC(=O)CNC(=O)[C@H](CCCCN)NC(=O)[C@H](Cc2ccccc2)NC(=O)[C@H](Cc2ccccc2)NC(=O)[C@H](CCCCN)NC(=O)OCC2c3ccccc3-c3ccccc32)C(C)C)CSSC[C@@H](C(=O)N[C@@H](Cc2c[nH]cn2)C(=O)N[C@@H](CCCNC(=N)N)C(=O)N[C@@H](CCCNC(=N)N)C(=O)N[C@@H](C)C(=O)N[C@@H](CC(N)=O)C(N)=O)NC(=O)[C@H](C(C)C)NC(=O)[C@H](CCCNC(=N)N)NC1=O` is reported as 76.2% (HPLC; mouse kidney homogenate 50 mg/mL; 2.00 h, 37 °C).
The blood PDW of `C=CC(=O)Nc1cccc(Cn2ncc3cnc(Nc4cnn(CCOC)c4)nc32)c1` is reported as 15.7 ± 0.41 fL (female Sprague-Dawley rat; oral, 180 mg/kg/day, day 28, 28-day subacute toxicity).
With `C#Cc1c(F)ccc2cc(O)cc(-c3ncc4c(N5CC6CCC(C5)N6C(=O)OC(C)OC(=O)C(C)(C)C)nc(OC[C@@]56CCCN5C[C@H](F)C6)nc4c3F)c12` (stereo partly shown) the compound remaining was 94.7% (chemical stability; simulated intestinal fluid; 1 µM, 30 min).
Under “uptake in large intestine with contents”, `N#[11C]c1ccc(-c2csc(NN=C3CCCC3)n2)cc1` is recorded as 2.01 ± 0.35 %ID/g (C57BL/6 mouse, male; intravenous, 3 MBq, 60 min).
`CSCC[C@H](N)C(=O)N[C@@H](C)C(=O)N[C@@H](Cc1c[nH]c2ccccc12)C(=O)N[C@@H](Cc1c[nH]cn1)C(=O)N[C@@H](CC(=O)O)C(=O)N[C@@H](CC(=O)O)C(=O)N[C@@H](CCC(=O)O)C(=O)N[C@@H](CCC(=O)O)C(=O)N[C@@H](Cc1ccccc1)C(=O)N[C@@H](C)C(=O)N[C@@H](CCCNC(=N)N)C(=O)N[C@@H](CCCNC(=N)N)C(=O)N[C@@H](CCCNC(=N)N)C(=O)N[C@@H](CCCNC(=N)N)C(=O)NCCCCCC(=O)NCCCCC(NC(=O)CCCCCNC(=O)[C@H](CCCNC(=N)N)NC(=O)[C@H](CCCNC(=N)N)NC(=O)[C@H](CCCNC(=N)N)NC(=O)[C@H](CCCNC(=N)N)NC(=O)[C@H](C)NC(=O)[C@H](Cc1ccccc1)NC(=O)[C@H](CCC(=O)O)NC(=O)[C@H](CCC(=O)O)NC(=O)[C@H](CC(=O)O)NC(=O)[C@H](CC(=O)O)NC(=O)[C@H](Cc1c[nH]cn1)NC(=O)[C@H](Cc1c[nH]c2ccccc12)NC(=O)[C@H](C)NC(=O)[C@@H](N)CCSC)C(=O)NCCCCC(NC(=O)C(CCCCNC(=O)CCCCCNC(=O)[C@H](CCCNC(=N)N)NC(=O)[C@H](CCCNC(=N)N)NC(=O)[C@H](CCCNC(=N)N)NC(=O)[C@H](CCCNC(=N)N)NC(=O)[C@H](C)NC(=O)[C@H](Cc1ccccc1)NC(=O)[C@H](CCC(=O)O)NC(=O)[C@H](CCC(=O)O)NC(=O)[C@H](CC(=O)O)NC(=O)[C@H](CC(=O)O)NC(=O)[C@H](Cc1c[nH]cn1)NC(=O)[C@H](Cc1c[nH]c2ccccc12)NC(=O)[C@H](C)NC(=O)[C@@H](N)CCSC)NC(=O)CCCCCNC(=O)[C@H](CCCNC(=N)N)NC(=O)[C@H](CCCNC(=N)N)NC(=O)[C@H](CCCNC(=N)N)NC(=O)[C@H](CCCNC(=N)N)NC(=O)[C@H](C)NC(=O)[C@H](Cc1ccccc1)NC(=O)[C@H](CCC(=O)O)NC(=O)[C@H](CCC(=O)O)NC(=O)[C@H](CC(=O)O)NC(=O)[C@H](CC(=O)O)NC(=O)[C@H](Cc1c[nH]cn1)NC(=O)[C@H](Cc1c[nH]c2ccccc12)NC(=O)[C@H](C)NC(=O)[C@@H](N)CCSC)C(N)=O` (stereo partly shown) — result for “mean tissue distribution”: 0.24% (C57BL/6 mouse female, ovary; dose not given, 3 h; reference: total).
`O=C1NC2(CC2)COc2ncc(F)cc2[C@H]2COCCN2c2ccn3ncc1c3n2` gave an organ weight of 1.69 ± 0.384 g (Sprague-Dawley rat, male, spleen; oral, 20 mg/kg/day, 4 weeks).
For `CCCCCC(=O)N[C@@H](CCCNC(=N)N)C(=O)N[C@@H](Cc1c[nH]c2ccccc12)C(=O)N[C@@H](CCCCN)C(=O)N[C@H](C(=O)N[C@@H](Cc1ccccc1)C(=O)N[C@@H](CCCCN)C(=O)N[C@@H](CCCCN)C(=O)N[C@H](C(=O)N[C@@H](CCC(=O)O)C(=O)N[C@@H](CCCCN)C(=O)N[C@H](C(=O)NCC(=O)N[C@@H](CCC(N)=O)C(=O)N[C@@H](CC(N)=O)C(=O)N[C@H](C(=O)N[C@@H](CCCNC(=N)N)C(=O)N[C@@H](CC(=O)O)C(=O)NCC(=O)N[C@H](C(=O)N[C@H](C(=O)N[C@@H](CCCCN)C(=O)N[C@@H](C)C(=O)NCC(=O)N1CCC[C@H]1C(=O)N[C@@H](C)C(=O)N[C@H](C(=O)N[C@@H](C)C(=O)N[C@H](C(=O)N[C@H](C(=O)NCC(=O)N[C@@H](CCC(N)=O)C(=O)N[C@@H](C)C(=O)N[C@@H](C)C(=O)N[C@H](C(=O)N[C@H](C(N)=O)[C@@H](C)CC)[C@@H](C)O)C(C)C)C(C)C)C(C)C)C(C)C)[C@@H](C)CC)[C@@H](C)CC)C(C)C)[C@@H](C)CC)[C@@H](C)CC`, the hemolysis was less than 8% (mouse erythrocytes; 32 µM, 1 h, 37 °C).
`CC(=O)NCCCC[C@@H]1NC(=O)[C@H](Cc2c[nH]c3c(C)cccc23)NC(=O)[C@H]([C@@H](C)O)NC(=O)[C@H](CC(N)=O)NC(=O)[C@@H](NC(C)=O)C(C)(C)SSC(C)(C)[C@@H](C(=O)N[C@@H](Cc2ccc(OCCN)cc2)C(=O)N[C@@H](Cc2ccc3ccccc3c2)C(=O)NC2(C(=O)N[C@@H](CCC(=O)O)C(=O)N[C@@H](CC(N)=O)C(=O)N[C@@H](Cc3cccnc3)C(=O)N(C)CC(N)=O)CCOCC2)NC1=O`: “blood to plasma ratio” 0.61 ± 0.03 (human, blood; 0.13 µM, 2 h).
The absorbed dose of `CC(C)C[C@@H](NC(=O)[C@@H](CCCNC(=N)N)NC(=O)[C@@H](Cc1c[nH]cn1)NC(=O)[C@@H](Cc1c[nH]c2ccccc12)NC(=O)[C@@H](Cc1c[nH]cn1)NC(=O)[C@@H](Cc1ccccc1)NC(=O)[C@H](NC(=O)[C@@H](Cc1ccc(O)cc1)NC(=O)CNC(=O)CNC(=O)CCOCCOCCOCCNC(=O)CN1CCN(CC(=O)O)CCN(CC(=O)O)CC1)[C@H](C)O)C(=O)N[C@H](CC(N)=O)C(=O)N1CCC[C@@H]1C(=O)O` [gallium-68 labelled] is reported as 0.0119 ± 0.000982 mSv/MBq (human female, from C57BL/6 mouse, urinary bladder wall).
`CCCCCCCCCCCCCCCC(=O)N[C@@H](CCC(=O)NCCOCCOCCC(=O)NCCOCCOCCC(=O)NCCCC[C@H](NC(=O)[C@H](CC(=O)O)NC(=O)[C@H](CC(C)C)NC(=O)[C@H](Cc1ccc(O)cc1)NC(=O)[C@H](CCCCN)NC(=O)[C@H](CO)NC(=O)[C@H](Cc1ccc(O)cc1)NC(=O)[C@H](CC(=O)O)NC(=O)[C@H](CO)NC(=O)[C@@H](NC(=O)[C@H](Cc1ccccc1)NC(=O)[C@@H](NC(=O)CNC(=O)[C@H](CCC(N)=O)NC(=O)[C@@H](CO)NC(=O)[C@@H](N)Cc1c[nH]cn1)[C@@H](C)O)[C@@H](C)O)C(=O)N[C@@H](CCCNC(=N)N)C(=O)N[C@@H](CCCNC(=N)N)C(=O)N[C@@H](C)C(=O)N[C@@H](CCC(N)=O)C(=O)N[C@@H](CC(=O)O)C(=O)N[C@@H](Cc1ccccc1)C(=O)N[C@H](C(=O)N[C@@H](CCC(N)=O)C(=O)N[C@@H](Cc1c[nH]c2ccccc12)C(=O)N[C@@H](CC(C)C)C(=O)N[C@@H](CC(C)C)C(=O)N[C@@H](CC(N)=O)C(=O)N[C@H](C(=O)NCC(=O)NCC(=O)N1CCC[C@H]1C(=O)N[C@@H](CO)C(=O)N[C@@H](CO)C(=O)NCC(=O)N[C@@H](C)C(=O)N1CCC[C@H]1C(=O)N1CCC[C@H]1C(=O)N1CCC[C@H]1C(=O)N[C@@H](CO)C(N)=O)[C@@H](C)O)C(C)C)C(=O)O` — result for “serum enzyme activity”: 123 ± 11 U/L (refers to: CK; rhesus monkey, female; subcutaneous, 20 µg/kg once daily, 28 days).
The intrinsic clearance of `O=C1c2ccccc2CCCN1CCCCN1CCN(c2cccc(Cl)c2Cl)CC1` is reported as greater than 50 mL/min/g (mouse liver microsomes; 0.5 µM).
